{"data": "Assay results collected from several papers", "cell line": "SW480", "observed": "cell growth or viability", "note": "Compare with care: the assays were run in different laboratories."}
{"Structure (SMILES)": "C[O][Pt-2]1([Cl])([Cl])([O]C(=O)CCC(=O)O)[NH2+]CC[N+]1(C)C", "assay": "MTT", "conditions": "96 h", "IC50": "135 µM"}
{"Structure (SMILES)": "COc1c(O)cc2oc3cc4c(c(O)c3c(=O)c2c1CCC(C)(C)O)CCC(C)(C)O4", "conditions": "48 h", "IC50": "> 40 µM"}
{"Structure (SMILES)": "C[O][Pt-2]([NH3+])([NH3+])([OH])([Cl])[Cl]", "assay": "MTT", "conditions": "96 h", "IC50": "3.9 µM"}
{"Structure (SMILES)": "COc1c(O)c(Br)c2oc3c(Br)c(O)c(CCC(C)C)c(O)c3c(=O)c2c1CCC(C)C", "conditions": "48 h", "IC50": "21.3 µM"}
{"Structure (SMILES)": "COc1cc2c(cc1O)[C@]1(O)C(=O)c3c(O)cc4c(c3O[C@@H]1CO2)C=CC(C)(C)O4", "assay": "MTT", "IC50": "60.8 µM"}
{"Structure (SMILES)": "C[O][Pt-2]1([Cl])([Cl])([O]C(=O)CCC(=O)OCCOC(=O)CCC(=O)[O][Pt-2]2([Cl])([Cl])([O]C)[NH2+]CC[N+]2(C)C)[NH2+]CC[N+]1(C)C", "assay": "MTT", "conditions": "96 h", "IC50": "19 µM"}
{"Structure (SMILES)": "Cc1c([O][Ru][Cl])c(=O)ccn1CCCCn1ccc(=O)c([O][Ru][Cl])c1C.Cc1ccc(C(C)C)cc1.Cc1ccc(C(C)C)cc1", "assay": "MTT", "conditions": "96 h", "IC50": "28 µM"}
{"Structure (SMILES)": "Cc1ccc(C(C)C)cc1.Oc1ccccc1C=NNC1=Nc2ccccc2-c2[nH]c3ccc(Br)cc3c2C1.[Cl-].[Cl][Os+]", "assay": "MTT", "conditions": "96 h", "IC50": "1.7 µM"}
{"Structure (SMILES)": "CC(C)=CCc1cc(-c2coc3cc(O)c(CC=C(C)C)c(O)c3c2=O)ccc1O", "assay": "MTT", "IC50": "116 µM"}
{"Structure (SMILES)": "C[O][Pt-2]([NH3+])([NH3+])([Cl])([Cl])[O]C(=O)CCC(=O)OCCO", "assay": "MTT", "conditions": "96 h", "IC50": "37 µM"}
{"Structure (SMILES)": "CC(C)=CCc1c(O)c(CC=C(C)C)c2occ(-c3ccc(O)c(O)c3)c(=O)c2c1O", "assay": "MTT", "IC50": "> 100 µM"}
{"Structure (SMILES)": "COc1c(O)cc2oc3c(Br)c(O)c(CCC(C)C)c(O)c3c(=O)c2c1CCC(C)C", "conditions": "48 h", "IC50": "17.3 µM"}
{"Structure (SMILES)": "Cc1ccc(C(C)C)cc1.Cc1ncc(CO)c(C=NNC2=Nc3ccccc3-c3[nH]c4ccc(Br)cc4c3C2)c1O.[Cl-].[Cl][Os+]", "assay": "MTT", "conditions": "96 h", "IC50": "4.1 µM"}
{"Structure (SMILES)": "COc1c(O)cc2oc3cc4c(c(O)c3c(=O)c2c1CCC(C)C)CC(O)O4 (stereo not drawn)", "conditions": "48 h", "IC50": "15.9 µM"}
{"Structure (SMILES)": "C[N+]1(C)CC[NH2+][Pt-2]1([OH])([OH])([Cl])[Cl]", "assay": "MTT", "conditions": "96 h", "IC50": "115 µM"}
{"note": "Repeated from above:"}
{"Structure (SMILES)": "COc1cc2c(cc1O)[C@]1(O)C(=O)c3c(O)cc4c(c3O[C@@H]1CO2)C=CC(C)(C)O4", "assay": "MTT", "IC50": "60.8 µM"}
{"Structure (SMILES)": "C[O][Pt-2]1([Cl])([Cl])([O]C(=O)CCC(=O)OCCOC(=O)CCC(=O)[O][Pt-2]2([Cl])([Cl])([O]C)[NH2+]CC[N+]2(C)C)[NH2+]CC[N+]1(C)C", "assay": "MTT", "conditions": "96 h", "IC50": "19 µM"}
